Measured values gathered from unrelated publications.
Numbered parts are unrelated; each lists some results of a single study.

Sample 1
Target: RNA binding protein fox-1 homolog 2, RRM domain, GST-SBP tag (RBFOX2, Homo sapiens, UniProt O43251-10, residues 100-194)
Method: RNA Bind-n-Seq
Molecule type: RNA
Medium: in vitro
Tested at: 365 nM
Setting: natural RNA segment, single round, ends assumed
Reference: no-protein control
Direction: higher = stronger binding
For `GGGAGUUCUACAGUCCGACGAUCGGUCUGAGGCUAUCCCUCAGCCAUGCAUAAAGUCCAAGAGAACCAACUGGCUCCUGGUCUCUAGCCUGUGACCGGCUUGCUUAAUGUCCUCAGAACCUGACAGGUAUGUUUGGAAUUCUCGGGUGCCAA`, “RBNS enrichment (R)” read 0.449.
`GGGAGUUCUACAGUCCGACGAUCCUUAGGGGGCAGAAGCCAAUGGGUGGAAAGAACAGUAGAGGUUCUGUAUAGCAUGGAAGUCAACUGCAGCCCAUAUCACACCUGGUCCUGGGAAUGUGUCCUCAUCACUUUGGAAUUCUCGGGUGCCAA` — result for “RBNS enrichment (R)”: 3.47.
`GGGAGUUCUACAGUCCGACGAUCUCUGUUUCCCCUUUUUCCUUUUUUUUUUUAAUUAAAGAGCAAAGCUUUUUAUUACUUUGUAAUUUAAAAAACUGAAAAAAAAAAAACUGAAGAACUUUGGGGGGAAUUUUUGGAAUUCUCGGGUGCCAA`: “RBNS enrichment (R)” 0.785.
For `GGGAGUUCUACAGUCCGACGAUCAUAAUUAUGAGUAAACCCGGUCCUUUCGAUGUUUAGAGUAAGCAGAGGCCCACAGUGGAGGCUUACCAAAGGUUGCAAUGAGGAAGAGGCCUCUCCCUCACUGUCAGCACUGGAAUUCUCGGGUGCCAA`, “RBNS enrichment (R)” read 0.402.
Under “RBNS enrichment (R)”, `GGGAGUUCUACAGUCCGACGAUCGAGGCUCAAGGAUAGAUGAGCUCUGAGUUUCUCAGUACUCCCUCAAGACUGGACAUCUUGGUCUUUUUCUCAGGCCUGAGGGGGAACCAUUUUUGGUGUGAUAAAUACCCUGGAAUUCUCGGGUGCCAA` is recorded as 0.521.
`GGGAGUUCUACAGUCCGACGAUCACCUAACCUGCAUCCCAUUUCCAGCCUCUUUUCAAGCUGAGAAAAAAAAAAAAAAACACGUUUGAUACUUUGUACAUCAGAUGCAUCUUAUUUAAAAGGGAUACUUUUGUUGGAAUUCUCGGGUGCCAA`: “RBNS enrichment (R)” 0.631.
`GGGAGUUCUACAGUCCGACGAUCAGAGAGUUAUGCUACAAUUAUUUCUUGGUUUCCACUUGCAAUGGUUAAUUAAGUCCAAAAACAGCUGUCAGAACCUCGAGAGCAGAACAUGAGAAACUCAGAGCUCUGGAUGGAAUUCUCGGGUGCCAA` — result for “RBNS enrichment (R)”: 0.634.
Under “RBNS enrichment (R)”, `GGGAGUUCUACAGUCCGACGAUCUCACAGUCACAGAGAUCACCUGCCCCCUCUGCCUUUCAAGUACAGGGAUUAAAGGCAUGCAUCACCACAGCCUACAGCAAUGUGUGUCUUAUAUACUAUGAGAUAGUGAGUGGAAUUCUCGGGUGCCAA` is recorded as 0.628.

Sample 2
Target: Interferon regulatory factor 5, full length, phosphomimetic (IRF5, Homo sapiens, UniProt Q13568-2, residues 1-514, K96S/S451D/S453D/S456D/S462D)
Method: protein-binding microarray
Molecule type: double-stranded DNA, one strand shown
Medium: in vitro
Tested at: 250 nM
Setting: 60-bp whole probe
With: salmon DNA 0.4 mg/ml
Reference: random background probes
Direction: higher = stronger binding
Shared flanks, not repeated: GCCTAGCAC … GTCTTGATTCGCTTGACGCTGCTG
For `TTAGGGTTCGACTTTCGGTTAGTGCTA`, the log fluorescence was 9.24 z-score.
`TTAGGTTTCGACTTTCTGTTAGTGCTA` has a log fluorescence of 8.21 z-score.
The log fluorescence of `CGAGGTCTCGCTATGTTGTCGTGCTAG` is reported as -0.0146 z-score.
`TTAGGACTGGGGTATCAGTTAGTGCTA` has a log fluorescence of 0.2 z-score.
`GGCGGTTTCGGTTTCGGGACGTGCTAG` gave a log fluorescence of 10.7 z-score.
For `TCATCTCTGTCCCTGTTACTGTGCTAG`, the log fluorescence was 0.492 z-score.
`AACGGTATCGGGTATCGGGACGTGCTA` gave a log fluorescence of 3.96 z-score.
`GACGGTAACGACTATCGGGACGTGCTA` gave a log fluorescence of 1.55 z-score.
`ATAGGTTTCGACTATCGGTTAGTGCTA` gave a log fluorescence of 9.48 z-score.
With `TTAGATATCGGGTTTCGATTGGTGCTA` the log fluorescence was 7.52 z-score.
`TACTCTCCAGGGTTTCTCTTTGTGCTA` gave a log fluorescence of 0.524 z-score.
`TTAGGTATCCTTATGCTTTAGTGCTAG` has a log fluorescence of 0.18 z-score.
`TTAGGTATCGGGACAGGGTTAGTGCTA` has a log fluorescence of 2 z-score.
With `TCATCTTCCCCTCTCTTACTGTGCTAG` the log fluorescence was 0.39 z-score.
With `TCATTTTTTGGAATGTCACTGTGCTAG` the log fluorescence was 0.779 z-score.
For `GATGGTTCCGGTTTCGGGACGTGCTAG`, the log fluorescence was 5.47 z-score.
`TTAGGTATCTGGTATCGGTTAGTGCTA` has a log fluorescence of 6.38 z-score.
For `TTAGATCTCAGTTTCGATAAGTGCTAG`, the log fluorescence was 8.72 z-score.
With `AAACGGGCTTCTTTTTCTCAGGTGCTA` the log fluorescence was 0.368 z-score.

Sample 3
Target: Histone acetyltransferase KAT6A, winged helix 2, GST fusion (KAT6A, Homo sapiens, UniProt Q92794, residues 85-181)
Method: protein binding microarray
Molecule type: double-stranded DNA, one strand shown
Medium: in vitro
Tested at: not given
Setting: 8-mer, flanks averaged, mean of 2 arrays, mostly near background
Reference: not given
Direction: higher = stronger binding
Target sequence (chain): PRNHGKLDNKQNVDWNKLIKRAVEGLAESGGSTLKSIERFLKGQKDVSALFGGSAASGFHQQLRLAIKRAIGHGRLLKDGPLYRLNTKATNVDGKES
`ACTAAAAC` has an E-score of -0.0711.
For `CGCTCCAG`, the E-score was 0.174.
With `AAATGGAC` the E-score was 0.0344.
`GACCATCC` has an E-score of -0.056.
The E-score of `AACCCGAA` is reported as 0.115.
`AGCACTTA` has an E-score of -0.0452.
With `GCCGCGTA` the E-score was 0.0413.
With `CTAAGAGA` the E-score was 0.00362.
The E-score of `ATCTAGCC` is reported as -0.16.
With `TAAGGCGA` the E-score was -0.0245.
With `CGTGTAAA` the E-score was -0.0813.
`CGCATACG` has an E-score of 0.19.
`GAGACAGA` has an E-score of 0.0113.
`ACCATCTC` gave an E-score of -0.0731.
With `CATGGTAC` the E-score was -0.113.
With `CATTAGAC` the E-score was -0.181.
With `CTCTAACC` the E-score was -0.196.
`TATGTACA` gave an E-score of -0.236.
`AAATTAAC` has an E-score of 0.0731.
`ATAGTACC` has an E-score of -0.146.

Sample 4
Target: Centromere-binding protein 1, full length, N-terminal tag (CBF1, Saccharomyces cerevisiae, UniProt P17106, residues 1-351)
Sequence of UniProt P17106 (whole entry, looked up): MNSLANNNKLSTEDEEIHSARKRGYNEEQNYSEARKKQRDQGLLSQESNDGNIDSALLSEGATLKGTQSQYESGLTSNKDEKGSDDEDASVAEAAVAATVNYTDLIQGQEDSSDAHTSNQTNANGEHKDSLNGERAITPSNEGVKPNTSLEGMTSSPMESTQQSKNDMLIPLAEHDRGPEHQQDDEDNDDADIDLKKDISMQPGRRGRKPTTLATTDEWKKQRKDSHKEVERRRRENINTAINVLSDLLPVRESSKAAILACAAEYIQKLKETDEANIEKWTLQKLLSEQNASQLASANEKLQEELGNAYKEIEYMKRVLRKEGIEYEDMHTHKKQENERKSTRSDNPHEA
Method: protein-binding microarray
Molecule type: double-stranded DNA, one strand shown
Medium: in vitro
Tested at: 0.8 µM
Setting: whole 60-bp probe, no competitor
Direction: higher = stronger binding
With `CTACGAATTCCCGAGCACATGGAGTCGCTGAACTTCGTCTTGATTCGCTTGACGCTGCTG` the fluorescence intensity was 655 a.u.
`GAACAGATATATACTCAGGTGCTAATGCGAATTTAGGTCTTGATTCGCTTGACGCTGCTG` has a fluorescence intensity of 567 a.u.
`GAAGTGAGATGGCGTGGCGTGGATCTGCAGGCTTAGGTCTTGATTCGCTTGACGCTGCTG` has a fluorescence intensity of 524 a.u.
`TGTACGAAGCTATACCACGACATTATAGTAGTTAGGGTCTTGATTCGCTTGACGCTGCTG` gave a fluorescence intensity of 535 a.u.
`CCTAACTACTATAGTGATATGCAATAGCTTCGTACAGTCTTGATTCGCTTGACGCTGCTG` has a fluorescence intensity of 509 a.u.
`GAAACTAATTTAAACAACGTGTATTATTGTGCTTAGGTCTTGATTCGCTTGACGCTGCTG` has a fluorescence intensity of 589 a.u.
`GAATGAAGGCATCGTGACGTGATGATATAGGTGTAGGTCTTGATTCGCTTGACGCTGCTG` gave a fluorescence intensity of 1370 a.u.
`GAAAAATATAGTGTGATCATCGTCATATATTTTTAGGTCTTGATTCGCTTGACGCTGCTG` gave a fluorescence intensity of 675 a.u.
`CTAAGCTGTCACGGTCATCACTGCTCCGACACTTTCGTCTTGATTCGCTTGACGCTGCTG` gave a fluorescence intensity of 667 a.u.
With `CTATAAAGTACTCATTCCATCACCAAGATTAGTTTCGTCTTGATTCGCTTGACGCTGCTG` the fluorescence intensity was 515 a.u.
For `CTACCTCTTGTTTTCTTCGTGACATTTTTCTCTTTCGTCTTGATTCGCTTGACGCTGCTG`, the fluorescence intensity was 588 a.u.
With `GAACTTTTTACACCGCATGTGATAATATACTAGTAGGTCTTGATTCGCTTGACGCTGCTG` the fluorescence intensity was 1610 a.u.
The fluorescence intensity of `CTACATATTGGAAAGAACGTGCAATGGGTAGCTTTCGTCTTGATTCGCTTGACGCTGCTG` is reported as 611 a.u.
With `GAATCTGCATCAGGTGACCCAAACTAGAATAAGTAGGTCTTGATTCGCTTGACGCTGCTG` the fluorescence intensity was 5870 a.u.
`GAACTCTTTCCTCGCCACCAGATTTTAAGGCAGTAGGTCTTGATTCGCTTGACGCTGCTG` gave a fluorescence intensity of 561 a.u.
With `GAAAAAAGTTTTCGCCATCAGACGACTTATATGTAGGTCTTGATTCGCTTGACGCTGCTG` the fluorescence intensity was 530 a.u.
`CTACATTAAAAATACGTCATGATAGCAATGATATTCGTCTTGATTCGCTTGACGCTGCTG` gave a fluorescence intensity of 585 a.u.

For quick reference, copied from above (sample 3):
With `GCCGCGTA` the E-score was 0.0413.
With `CATTAGAC` the E-score was -0.181.
With `AAATGGAC` the E-score was 0.0344.
With `CATGGTAC` the E-score was -0.113.
`ACTAAAAC` has an E-score of -0.0711.
With `CTCTAACC` the E-score was -0.196.
